Measurements gathered from unrelated publications.
Each line is one published result; not all experiments were run side by side. Numbers after ± are the reported error.
Chain of UniProt P51813 (whole entry, looked up): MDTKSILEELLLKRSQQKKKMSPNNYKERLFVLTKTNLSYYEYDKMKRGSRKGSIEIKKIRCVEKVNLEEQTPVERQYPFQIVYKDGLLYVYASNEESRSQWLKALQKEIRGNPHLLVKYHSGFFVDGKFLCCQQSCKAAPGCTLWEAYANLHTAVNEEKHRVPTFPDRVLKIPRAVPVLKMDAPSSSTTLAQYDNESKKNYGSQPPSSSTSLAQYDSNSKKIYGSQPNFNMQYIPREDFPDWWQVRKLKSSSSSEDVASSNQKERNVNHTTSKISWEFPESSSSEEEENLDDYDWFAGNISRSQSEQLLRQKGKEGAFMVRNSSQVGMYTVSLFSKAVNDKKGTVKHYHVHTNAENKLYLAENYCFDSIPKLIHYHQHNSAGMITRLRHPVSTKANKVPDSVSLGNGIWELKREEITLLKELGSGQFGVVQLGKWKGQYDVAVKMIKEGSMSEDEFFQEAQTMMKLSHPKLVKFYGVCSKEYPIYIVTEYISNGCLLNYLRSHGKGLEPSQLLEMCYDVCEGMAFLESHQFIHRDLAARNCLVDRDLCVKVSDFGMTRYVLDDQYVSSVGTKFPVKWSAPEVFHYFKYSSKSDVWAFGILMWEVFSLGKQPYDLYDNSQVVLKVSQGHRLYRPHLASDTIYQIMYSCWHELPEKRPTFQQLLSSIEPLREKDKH

COc1cc(C(=O)N/N=C/c2cccc3ccccc23)cc(OC)c1OC  IC50 (HPBALL; cell growth or viability, MTT; 48 h): 0.0858 µM
CN1CCC(N[C@H]2CCc3[nH]c4c(C(N)=O)ccc(-c5ccccc5Cl)c4c3C2)CC1  IC50 (Pfeiffer; cell growth or viability): 0.406 µM
CCN(C(=O)c1cc(F)ccc1Oc1nncnc1N1CCC2(C1)CN(C(CCCN(C)CCOC)C(C)C)C2)C(C)C (stereo not drawn)  IC50 (OCI-AML-3 (NPM1c); inhibitor, QuantiGene multiplex, item: MEIS1 mRNA): > 3 µM
C=CC(=O)Nc1cc(Nc2nccc(-c3cn(C)c4ccccc34)n2)c(OC)cc1N(C)CCN(C)C  IC50 (Ba/F3 EGFR 19Del/T790M/C797S BBT-176-resistant BR2; cell growth; 72 h): > 1 µM
CN1CCCNC(=O)c2cccc(c2)C(=O)NCCCN(C)CCCNc2cccc3c2C(=O)c2cccc(c2C3=O)NCCC1  log2 fold change (SAS; RNA-Seq, item: GFM2 mRNA; 1 µM, 6 h; reference: untreated cells): -0.463
Cn1ncc(-c2ccc3c(=O)[nH]nc(CN)c3c2)c1-c1c(F)c(Cl)cc(OC2CC2)c1C#N  IC50 (NCI-H2052; cell viability, inhibitor, CellTiter-Glo; 120 h, baseline-subtracted): 0.02 µM
C[C@H]1CN(C2COC2)CCN1c1ccc(Nc2cc(-c3ccnc(N4CCn5c(cc6c5CC(C)(C)C6)C4=O)c3CO)cn(C)c2=O)nc1  IC50 (TMD8 ABBV-105-resistant; cell viability, CellTiter-Glo; 4 days, 48 h drug withdrawal): > 10 µM
C=CC(=O)N1CCCC(n2c(=O)c3ncccc3n(Cc3ccc(Oc4ccccc4)cc3)c2=O)C1 (stereo not drawn)  IC50 (OCI-LY19; cell growth or viability, MTT; 72 h): 0.15 µM
Cc1nn(-c2cccc(N)c2)c(=O)c2cnc(Nc3ccc(N4CCNCC4)cc3)nc12  IC50 (Cytoplasmic tyrosine-protein kinase BMX (BMX, Homo sapiens, UniProt P51813); kinase activity, inhibitor, SelectScreen kinase profiling): > 10 µM
CC(CCC(=O)OCc1cccc(CN(C(=O)OCc2ccc(B3OC(C)(C)C(C)(C)O3)cc2)[c-]2cccc2)c1)C1CCC2C3C(O)CC4CC(O)CCC4(C)C3CC(O)C12C.[Fe+2].c1cc[cH-]c1 (stereo not drawn)  IC50 (A2780; viability, MTT; 96 h): 6.6 ± 0.9 µM
CC(=O)[O][Pt]([NH2])([NH2])([Cl])([Cl])[O]C(=O)CCCc1ccccc1  IC50 (LoVo; cell growth or viability, MTT; 72 h): 4.02 µM
O=C(O)c1ccc2c3n(nc2c1)[C@@H]1[C@H](CO3)N(CC2CC2)[C@@]2(C(=O)Nc3cc(Cl)ccc32)[C@H]1c1cccc(Cl)c1F  IC50 (SJSA-1; cell growth or viability, ATP luminescence): 0.163 µM
O=C(Nc1ccc([C@H]2[C@@H](F)[C@@H](F)C[C@@H](F)[C@H]2F)cc1)C1(N2CCOCC2)CC1  hepatic clearance (hepatocyte stability; cryopreserved rat hepatocytes; 1 µM): 44 mL/min/kg
Cc1ncsc1-c1ccc(C(C)NC(=O)C2CC(O)CN2C(=O)C(NC(=O)CCCCCCCCCCN2CCCC(Nc3ncc(Cl)c(Nc4ccccc4S(=O)(=O)C(C)C)n3)C2)C(C)(C)C)cc1 (stereo not drawn)  log2 fold change (22Rv1; RNA-seq, item: SURF6 mRNA; concentration not given; reference: DMSO): -1.02
C=CC(=O)Nc1cccc(Cn2ncc3cnc(Nc4cnn(CCOC)c4)nc32)c1  percent of control (FGFR1 human; binding, KINOMEscan; 100 nM; lower = stronger binding): 27%
CCOc1cncc(-c2ccc(NC(=O)C3(c4ccnc(NS(=O)(=O)C5CC5)n4)CCOCC3)nc2)n1  IC50 (Skut1B; cell proliferation, CellTiter-Glo; 72 h): 1.43 µM
O=C1NCCC12CCN(c1c(Cl)cncc1-c1ccc(N3CCOCC3)cc1)CC2  IC50 (LS174T; WNT reporter gene, inhibitor, TCF/LEF luciferase): 0.155 ± 0.08 µM
CC(C)(C)c1nc(-c2cccc(NS(=O)(=O)c3c(F)cccc3F)c2F)c(-c2ccnc(N)n2)s1.Cc1[nH]c2ccccc2c1CCNCc1ccc(/C=C/C(=O)NO)cc1  IC50 (A2780; cell growth or viability, crystal violet; 48 h): 0.0202 µM
C=C1CC[C@H](OCCCNC(=O)CCOCCOCCOCCOCCOCCOCCOCCOCCOCCOCCOCCOCCOCCOCCOCCOCCOCCOCCOCCOCCOCCOCCOCCOCCOCCOCCOCCOCCOCCOCCOCCOCCOCCOCCOCCOCCNC(=O)CCN2C(=O)CC(SC[C@H](NC(=O)[C@H](Cc3ccccc3)NC(=O)[C@H](CC(N)=O)NC(=O)[C@H](Cc3c[nH]cn3)NC(=O)[C@@H](NC(=O)[C@H](CC(=O)O)NC(=O)[C@H](CCC(N)=O)NC(=O)[C@H](CC(C)C)NC(=O)[C@H](CCCCN)NC(=O)[C@H](CCCCN)NC(=O)[C@H](CCCNC(=N)N)NC(=O)[C@H](CC(C)C)NC(=O)[C@H](Cc3c[nH]c4ccccc34)NC(=O)[C@H](CCC(=O)O)NC(=O)[C@@H](NC(=O)[C@H](CCCNC(=N)N)NC(=O)[C@H](CCC(=O)O)NC(=O)[C@H](CCSC)NC(=O)[C@H](CO)NC(=O)[C@H](CC(N)=O)NC(=O)[C@H](CC(C)C)NC(=O)[C@H](Cc3c[nH]cn3)NC(=O)[C@H](CCCCN)NC(=O)CNC(=O)[C@H](CC(C)C)NC(=O)[C@H](CC(N)=O)NC(=O)[C@H](Cc3c[nH]cn3)NC(=O)[C@H](CCSC)NC(=O)[C@H](CC(C)C)NC(=O)[C@H](CCC(N)=O)NC(=O)[C@@H](NC(=O)[C@H](CCC(=O)O)NC(=O)[C@H](CO)NC(=O)[C@@H](NC(=O)[C@@H](N)CO)C(C)C)[C@@H](C)CC)C(C)C)C(C)C)C(=O)O)C2=O)C/C1=C/C=C1\CCC[C@]2(C)[C@@H]([C@H](C)CCCC(C)(C)O)CC[C@@H]12 (stereo partly drawn)  half-life (male Sprague-Dawley rat, plasma; subcutaneous, 100 µg/kg, single dose): 7.36 h
C[C@@H]1CC[C@@H]([C@@](O)(CNCc2ccccc2F)COCc2ccccc2)[C@H](OCc2ccccc2)C1  IC50 (A2780; cell growth or viability, MTT; 72 h): 4.01 µM
CNS(=O)(=O)Nc1nccc(Cc2c(C)c3ccc(Oc4ncccc4F)cc3oc2=O)c1F  IC50 (Calu-1; cell viability; 7 days): > 1 µM
CC(=O)[O][Pt]([NH2])([NH2])([Cl])([Cl])[O]C(=O)C(C)c1ccc(CC(C)C)cc1 (stereo not drawn)  IC50 (LoVo; cell growth or viability, MTT; 72 h): 1.25 µM
[BH3-][P@+]1(c2ccccc2)CC[C@H](O)CC1  IC50 (HaCaT; cell growth or viability, MTT; 72 h): > 100 µM
COc1cc(-c2cn(C)c(=O)c3cnccc23)c(OC)cc1Cn1ccnc1  IC50 (MOLM16; cell growth or viability, ATP luminescence): 1.6 µM
NCc1ccc2c(c1)CN(C1CCC(=O)NC1=O)C2=O (stereo not drawn)  IC50 (JHH7; cell growth or viability, ATP luminescence): 0.207 µM
COc1cc(-c2cn(C)c(=O)c3cnccc23)c(OC)cc1CN(C)C  IC50 (MOLM16; cell growth or viability, ATP luminescence): 50 µM
COc1ccccc1CNC[C@](O)(COCc1ccccc1)[C@@H]1CC[C@@H](C)C[C@H]1OCc1ccccc1  IC50 (A2780; cell growth or viability, MTT; 72 h): 2.19 µM
COc1ccnc(-c2cc(OC)ccn2)c1.[Co+2].[O-]c1c(I)cc(I)c2cccnc12.[O-]c1c(I)cc(I)c2cccnc12  IC50 (BEL-7404; cell growth or viability, MTT; 48 h): 19.5 µM
O=C1Nc2ccccc2C1(c1c[nH]c2ccccc12)c1c[nH]c2ccccc12  IC50 (human blood monocytes; cell viability; 24 h): 19.3 µM
Cc1ccc2c(Br)cc(Br)c([O-])c2n1.Cc1ccc2c(Br)cc(Br)c([O-])c2n1.[Co+2].c1cnc2c(c1)ccc1cccnc12  IC50 (BEL-7404; cell growth or viability, MTT; 48 h): 7.54 µM
O=C(NCCO)c1ccc(C2CCCCC2)cc1  hepatic clearance (hepatocyte stability; cryopreserved mouse hepatocytes; 1 µM): 76 mL/min/kg
Cc1ccc2c(Cl)cc(Cl)c([O-])c2n1.Cc1ccc2c(Cl)cc(Cl)c([O-])c2n1.[Co+2].c1cnc2c(c1)ccc1cccnc12  IC50 (BEL-7404; cell growth or viability, MTT; 48 h): 4.01 µM
COc1ccc(CNC[C@@](O)(COCc2ccccc2)[C@@H]2CC[C@@H](C)C[C@H]2OCc2ccccc2)cc1  IC50 (A2780; cell growth or viability, MTT; 72 h): 3.79 µM
Nc1ncc(-c2cc(-c3cnn(CC(F)(F)F)c3)ncc2F)nc1C(=O)NC1CNCC(F)C1 (stereo not drawn)  remaining binding (PDGFRB; KINOMEscan; 1 µM; reference: DMSO control): 100%
NC(=O)c1ccc(-c2ccccc2Cl)c2c3c([nH]c12)CC[C@@H](N)C3  IC50 (MINO; cell growth or viability): 0.0213 µM
Clc1ccnc2c1ccc1c(Cl)ccnc12.[Co+2].[O-]c1c(Br)cc(Br)c2cccnc12.[O-]c1c(Br)cc(Br)c2cccnc12  IC50 (BEL-7404; cell growth or viability, MTT; 48 h): 15.1 µM
CO[C@@H](C[C@H]1C(C)=CC[C@@H]2[C@]3(C)C[C@H](O[C@@H]4O[C@@H](C)[C@H](O)[C@@H](O)[C@H]4O)[C@@H](O)C(C)(C)[C@H]3CC[C@]21C)[C@H](N)C(=O)O  IC50 (3T3 fibroblasts; cell viability, CCK-8; 72 h): > 10 µM
Cc1ccnc(-c2cc(C)ccn2)c1.[Co+2].[O-]c1c(I)cc(I)c2cccnc12.[O-]c1c(I)cc(I)c2cccnc12  IC50 (BEL-7404; cell growth or viability, MTT; 48 h): 35.7 µM
C[C@@H]1CC[C@@H]([C@@](O)(CNCc2ccc(F)cc2)COCc2ccccc2)[C@H](OCc2ccccc2)C1  IC50 (A2780; cell growth or viability, MTT; 72 h): 4.28 µM
COC1CN([C@H]2CC[C@H]([C@@]3(C)Oc4c(Cl)cc(C(=O)NCc5c(SC)cc(C)[nH]c5=O)c(C)c4O3)CC2)C1  log2 fold change (RNA-seq, item: ATP7B mouse homolog; mouse, HT-1376 xenograft, whole blood; dose not given; reference: vehicle): 0.227
CC(C)c1ccc(N(C)c2ccc3c(c2)OCC[C@H]3CNc2cnccc2C(=O)O)cc1  IC50 (SW1990; cell growth or viability, ATP luminescence; 7 days): ≥ 10 µM
CC(C)=CC1OC(C)(C)C2C=C3C(=O)C(Cl)=CC(O)C3C3C(O)C4OC4C(=O)C132 (stereo not drawn)  IC50 (TE-12; cell viability, MTS): 5.44 ± 0.29 µM

A few entries again:
COc1cc(-c2cn(C)c(=O)c3cnccc23)c(OC)cc1CN(C)C  IC50 (MOLM16; cell growth or viability, ATP luminescence): 50 µM
COc1ccccc1CNC[C@](O)(COCc1ccccc1)[C@@H]1CC[C@@H](C)C[C@H]1OCc1ccccc1  IC50 (A2780; cell growth or viability, MTT; 72 h): 2.19 µM
COc1ccnc(-c2cc(OC)ccn2)c1.[Co+2].[O-]c1c(I)cc(I)c2cccnc12.[O-]c1c(I)cc(I)c2cccnc12  IC50 (BEL-7404; cell growth or viability, MTT; 48 h): 19.5 µM
O=C1Nc2ccccc2C1(c1c[nH]c2ccccc12)c1c[nH]c2ccccc12  IC50 (human blood monocytes; cell viability; 24 h): 19.3 µM
Cc1ccc2c(Br)cc(Br)c([O-])c2n1.Cc1ccc2c(Br)cc(Br)c([O-])c2n1.[Co+2].c1cnc2c(c1)ccc1cccnc12  IC50 (BEL-7404; cell growth or viability, MTT; 48 h): 7.54 µM
O=C(NCCO)c1ccc(C2CCCCC2)cc1  hepatic clearance (hepatocyte stability; cryopreserved mouse hepatocytes; 1 µM): 76 mL/min/kg
Cc1ccc2c(Cl)cc(Cl)c([O-])c2n1.Cc1ccc2c(Cl)cc(Cl)c([O-])c2n1.[Co+2].c1cnc2c(c1)ccc1cccnc12  IC50 (BEL-7404; cell growth or viability, MTT; 48 h): 4.01 µM
